{"data": "Published values collected from several papers", "note": "± gives the spread as reported."}
{"SMILES": "CCC(=O)N1CCN(c2ccc(NC(=O)c3ccc([N+](=O)[O-])o3)cc2Cl)CC1", "cell line": "HCC4017", "assay": "cell growth or viability, MTS", "conditions": "96 h", "IC50 [µM]": 47}
{"SMILES": "CC(=O)c1cnc(N)nc1N1CC[C@H]1c1nn2ccc(Cl)c2c(=O)n1-c1ccccc1", "cell line": "B cells", "assay": "item: CD69", "system": "human whole blood", "conditions": "with: anti-IgM", "IC50 [µM]": 0.063}
{"SMILES": "N=C(N/N=C/c1ccc2ccc3cccc4ccc1c2c34)N/N=C/c1ccc2ccc3cccc4ccc1c2c34", "cell line": "IMR-90", "assay": "cell growth or viability, crystal violet", "conditions": "72 h", "IC50 [µM]": 281}
{"SMILES": "COc1cc(NC(=O)c2ccccc2Cl)ccc1C(=O)Nc1ccc(Cl)c(-c2nc3ccccc3[nH]2)c1", "cell line": "NIH3T3-Gli-Luc", "assay": "Hedgehog signalling, Gli-luciferase reporter", "conditions": "with: Shh-conditioned medium", "IC50 [µM]": "0.17 ± 0.06"}
{"SMILES": "CCC(CC)CNC(=N)NC(=N)NCCCCCCNC(=N)NC(=N)NCC(CC)CC", "cell line": "NCI-H1299", "assay": "cell growth or viability, SRB", "conditions": "72 h", "IC50 [µM]": 0.6}
{"SMILES": "C[N+]1(C)CC[NH2+][Pt-2]1([OH])([Cl])([Cl])[O]C(=O)CCC(=O)O", "cell line": "CH1", "assay": "cell growth or viability, MTT", "conditions": "96 h", "IC50 [µM]": 8.4}
{"SMILES": "Cc1ccc(C(C)C)c(OCc2ccc(C(=O)N/N=C/c3cccc(O)c3O)cc2)c1", "cell line": "HCC4017", "assay": "cell growth or viability, MTS", "conditions": "96 h", "IC50 [µM]": 1.3}
{"SMILES": "N[C@@H](CCC(=O)N[C@@H](CS[Se]Cc1ccc(-c2cc(C(F)(F)F)nn2-c2ccc(S(N)(=O)=O)cc2)cc1)C(=O)NCC(=O)O)C(=O)O", "cell line": "1205 Lu melanoma cells", "assay": "cell viability, MTS", "conditions": "72 h", "IC50 [µM]": "10.6 ± 2.6"}
{"SMILES": "CN(C)CCCO/N=C1/C=C2CCC3C(CC[C@]4(C)/C(=C/c5ccccn5)CCC34)[C@@]2(C)CC1 (stereo partly drawn)", "cell line": "G-361", "assay": "cell growth or viability, resazurin", "conditions": "72 h", "IC50 [µM]": 2.8}
{"SMILES": "CO[C@@H]1[C@@H](O[C@@H]2O[C@H](C)[C@@H](O[C@H]3C[C@@](C)(O)[C@@H](OC(=O)CC(C)C)[C@H](C)O3)[C@H](N(C)C)[C@H]2O)[C@@H](CC=O)C[C@@H](C)[C@@H](O[C@H]2CC[C@H](N(C)C)[C@@H](C)O2)/C=C/C=C/C[C@@H](C)OC(=O)C[C@H]1O", "cell line": "HGC-27", "assay": "cell growth or viability, CCK-8", "conditions": "72 h", "IC50 [µM]": 8.08}
{"SMILES": "Fc1ccc(-c2cn(CSc3ccccc3)nn2)c(F)c1", "cell line": "SJSA-1", "assay": "cell growth or viability, MTS", "conditions": "72 h", "IC50 [µM]": "> 100"}
{"SMILES": "N=C(N)NCCC[C@H](N)C(=O)N[C@@H](CC(=O)N[C@@H](CC(=O)O)C(=O)O)c1cccc2ccccc12", "cell line": "BT-474 (HER2-overexpressing)", "IC50 [µM]": "> 50"}
{"SMILES": "CC(C)Cc1ccc(C(C)C(=O)[O][Pt]([NH2])([NH2])([Cl])([Cl])[O]C(=O)CCCc2ccccc2)cc1 (stereo not drawn)", "cell line": "PSN1 3D spheroids", "IC50 [µM]": "3.63 ± 0.53"}
{"SMILES": "Cc1cc(O)cc2c1O[C@](C)(CCC[C@H](C)CCC[C@H](C)CCCC(C)C)CC2", "cell line": "RPMI-7951", "assay": "cell growth or viability, MTT", "conditions": "24 h", "IC50 [µM]": 5.69}
{"SMILES": "COc1cccc(/C=N/Nc2nc(Nc3ccccc3)nc(-n3nc(C)cc3C)n2)c1O", "cell line": "HCC4017", "assay": "cell growth or viability, MTS", "conditions": "96 h", "IC50 [µM]": 6.6}
{"SMILES": "CC(C)N(C[C@H]1O[C@@H](n2cnc3c(N)ncnc32)[C@H](O)[C@@H]1O)C1CC2CN(Cc3ccc(OC(F)(F)F)cc3)CC2C1 (stereo partly drawn)", "cell line": "H460 R231Q", "assay": "cell proliferation, CCK-8", "conditions": "72 h", "IC50 [µM]": "73.5 ± 6.32"}
{"SMILES": "CO[C@@H]1[C@@H](O[C@@H]2O[C@H](C)[C@@H](O[C@H]3C[C@@](C)(O)[C@@H](OC(=O)/C=C/c4ccc(C(F)(F)F)cc4)[C@H](C)O3)[C@H](N(C)C)[C@H]2O)[C@@H](CC=O)C[C@@H](C)[C@@H](O[C@H]2CC[C@H](N(C)C)[C@@H](C)O2)/C=C/C=C/C[C@@H](C)OC(=O)C[C@H]1O", "cell line": "HGC-27", "assay": "cell growth or viability, CCK-8", "conditions": "72 h", "IC50 [µM]": 0.96}
{"SMILES": "CCC(C(=O)O)C1CCC(C)C(C(C)C(O)C(C)C(=O)C(CC)C2OC3(C=CC(NCc4cn(Cc5ccccc5)nn4)C4(CCC(C)(C5CCC(O)(CC)C(C)O5)O4)O3)C(C)CC2C)O1 (stereo not drawn)", "cell line": "HMLER CD24high/CD44low", "assay": "cell viability, CellTiter-Blue", "conditions": "72 h", "IC50 [µM]": "1.13 ± 0.3"}
{"note": "Some of these lines once more:"}
{"SMILES": "CN(C)CCCO/N=C1/C=C2CCC3C(CC[C@]4(C)/C(=C/c5ccccn5)CCC34)[C@@]2(C)CC1 (stereo partly drawn)", "cell line": "G-361", "assay": "cell growth or viability, resazurin", "conditions": "72 h", "IC50 [µM]": 2.8}
{"SMILES": "Cc1ccc(C(C)C)c(OCc2ccc(C(=O)N/N=C/c3cccc(O)c3O)cc2)c1", "cell line": "HCC4017", "assay": "cell growth or viability, MTS", "conditions": "96 h", "IC50 [µM]": 1.3}
